Experimental data collected from several papers.
Every numbered part comes from another study and shows a few of its results, in no order.
Sequence of UniProt Q96D53 (whole entry, looked up): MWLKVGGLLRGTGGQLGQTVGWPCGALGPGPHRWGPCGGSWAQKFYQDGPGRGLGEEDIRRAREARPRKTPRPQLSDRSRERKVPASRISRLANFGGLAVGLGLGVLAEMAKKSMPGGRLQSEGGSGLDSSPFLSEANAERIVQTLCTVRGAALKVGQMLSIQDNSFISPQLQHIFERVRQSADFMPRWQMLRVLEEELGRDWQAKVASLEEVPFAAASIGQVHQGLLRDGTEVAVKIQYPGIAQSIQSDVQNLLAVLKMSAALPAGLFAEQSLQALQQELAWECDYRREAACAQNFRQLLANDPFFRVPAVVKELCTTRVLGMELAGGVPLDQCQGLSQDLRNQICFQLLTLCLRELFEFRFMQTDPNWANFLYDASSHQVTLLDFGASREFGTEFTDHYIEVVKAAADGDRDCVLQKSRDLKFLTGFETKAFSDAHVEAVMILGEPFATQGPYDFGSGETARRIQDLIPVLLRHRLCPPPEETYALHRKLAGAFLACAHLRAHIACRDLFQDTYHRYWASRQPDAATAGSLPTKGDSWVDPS
Sequence of UniProt P15735 (whole entry, looked up): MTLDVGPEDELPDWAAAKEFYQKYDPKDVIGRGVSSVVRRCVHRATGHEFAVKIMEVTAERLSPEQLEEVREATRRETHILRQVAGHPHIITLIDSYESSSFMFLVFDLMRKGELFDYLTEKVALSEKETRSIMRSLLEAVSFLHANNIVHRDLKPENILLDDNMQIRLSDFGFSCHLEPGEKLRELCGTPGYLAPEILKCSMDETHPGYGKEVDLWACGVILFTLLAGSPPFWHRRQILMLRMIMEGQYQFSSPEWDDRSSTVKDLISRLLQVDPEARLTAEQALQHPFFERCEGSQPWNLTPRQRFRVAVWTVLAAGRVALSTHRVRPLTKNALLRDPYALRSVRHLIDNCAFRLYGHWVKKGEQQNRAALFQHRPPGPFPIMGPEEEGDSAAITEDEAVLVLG
Sequence of UniProt P53778 (whole entry, looked up): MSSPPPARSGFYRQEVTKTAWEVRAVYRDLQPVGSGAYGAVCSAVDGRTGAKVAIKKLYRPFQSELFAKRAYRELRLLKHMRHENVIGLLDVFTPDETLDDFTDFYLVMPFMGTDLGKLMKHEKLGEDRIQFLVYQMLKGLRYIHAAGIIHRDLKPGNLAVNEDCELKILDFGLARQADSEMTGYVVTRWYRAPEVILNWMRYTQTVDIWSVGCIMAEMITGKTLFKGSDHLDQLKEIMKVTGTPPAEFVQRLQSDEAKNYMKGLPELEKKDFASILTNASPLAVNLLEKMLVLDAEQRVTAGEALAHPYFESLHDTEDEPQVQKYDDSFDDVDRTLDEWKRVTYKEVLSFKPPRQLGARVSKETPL
Sequence of UniProt P05771 (whole entry, looked up): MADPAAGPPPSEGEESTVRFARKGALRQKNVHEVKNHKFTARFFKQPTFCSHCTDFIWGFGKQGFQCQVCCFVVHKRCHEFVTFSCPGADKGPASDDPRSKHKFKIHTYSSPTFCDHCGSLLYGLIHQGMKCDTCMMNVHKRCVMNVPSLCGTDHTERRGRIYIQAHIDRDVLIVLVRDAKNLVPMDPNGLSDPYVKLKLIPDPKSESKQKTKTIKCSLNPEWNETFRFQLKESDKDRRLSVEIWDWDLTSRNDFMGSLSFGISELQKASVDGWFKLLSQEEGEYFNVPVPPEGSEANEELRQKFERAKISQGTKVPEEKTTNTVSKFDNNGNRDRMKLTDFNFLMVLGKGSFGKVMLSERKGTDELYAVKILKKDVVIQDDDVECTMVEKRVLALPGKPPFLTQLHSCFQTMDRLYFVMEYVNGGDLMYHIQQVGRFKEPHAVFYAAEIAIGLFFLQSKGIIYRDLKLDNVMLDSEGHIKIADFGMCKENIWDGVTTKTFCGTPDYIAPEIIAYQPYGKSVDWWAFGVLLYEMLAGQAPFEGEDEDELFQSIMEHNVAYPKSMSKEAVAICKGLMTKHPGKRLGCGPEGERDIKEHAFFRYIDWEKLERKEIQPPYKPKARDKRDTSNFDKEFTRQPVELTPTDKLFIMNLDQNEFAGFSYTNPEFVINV
Sequence of UniProt P49336 (whole entry, looked up): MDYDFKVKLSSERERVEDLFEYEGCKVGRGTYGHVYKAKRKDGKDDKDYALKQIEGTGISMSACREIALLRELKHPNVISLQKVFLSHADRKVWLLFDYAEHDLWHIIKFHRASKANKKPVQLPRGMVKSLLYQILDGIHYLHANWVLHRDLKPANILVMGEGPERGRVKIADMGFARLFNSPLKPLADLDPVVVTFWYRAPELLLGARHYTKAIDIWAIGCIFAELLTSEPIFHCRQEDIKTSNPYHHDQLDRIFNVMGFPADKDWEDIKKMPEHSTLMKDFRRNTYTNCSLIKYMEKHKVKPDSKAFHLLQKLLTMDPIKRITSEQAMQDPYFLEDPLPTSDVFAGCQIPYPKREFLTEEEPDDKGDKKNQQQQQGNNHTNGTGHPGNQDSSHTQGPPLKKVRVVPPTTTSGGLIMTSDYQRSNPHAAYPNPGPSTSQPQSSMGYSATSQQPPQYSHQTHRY
Sequence of UniProt P53355 (whole entry, looked up): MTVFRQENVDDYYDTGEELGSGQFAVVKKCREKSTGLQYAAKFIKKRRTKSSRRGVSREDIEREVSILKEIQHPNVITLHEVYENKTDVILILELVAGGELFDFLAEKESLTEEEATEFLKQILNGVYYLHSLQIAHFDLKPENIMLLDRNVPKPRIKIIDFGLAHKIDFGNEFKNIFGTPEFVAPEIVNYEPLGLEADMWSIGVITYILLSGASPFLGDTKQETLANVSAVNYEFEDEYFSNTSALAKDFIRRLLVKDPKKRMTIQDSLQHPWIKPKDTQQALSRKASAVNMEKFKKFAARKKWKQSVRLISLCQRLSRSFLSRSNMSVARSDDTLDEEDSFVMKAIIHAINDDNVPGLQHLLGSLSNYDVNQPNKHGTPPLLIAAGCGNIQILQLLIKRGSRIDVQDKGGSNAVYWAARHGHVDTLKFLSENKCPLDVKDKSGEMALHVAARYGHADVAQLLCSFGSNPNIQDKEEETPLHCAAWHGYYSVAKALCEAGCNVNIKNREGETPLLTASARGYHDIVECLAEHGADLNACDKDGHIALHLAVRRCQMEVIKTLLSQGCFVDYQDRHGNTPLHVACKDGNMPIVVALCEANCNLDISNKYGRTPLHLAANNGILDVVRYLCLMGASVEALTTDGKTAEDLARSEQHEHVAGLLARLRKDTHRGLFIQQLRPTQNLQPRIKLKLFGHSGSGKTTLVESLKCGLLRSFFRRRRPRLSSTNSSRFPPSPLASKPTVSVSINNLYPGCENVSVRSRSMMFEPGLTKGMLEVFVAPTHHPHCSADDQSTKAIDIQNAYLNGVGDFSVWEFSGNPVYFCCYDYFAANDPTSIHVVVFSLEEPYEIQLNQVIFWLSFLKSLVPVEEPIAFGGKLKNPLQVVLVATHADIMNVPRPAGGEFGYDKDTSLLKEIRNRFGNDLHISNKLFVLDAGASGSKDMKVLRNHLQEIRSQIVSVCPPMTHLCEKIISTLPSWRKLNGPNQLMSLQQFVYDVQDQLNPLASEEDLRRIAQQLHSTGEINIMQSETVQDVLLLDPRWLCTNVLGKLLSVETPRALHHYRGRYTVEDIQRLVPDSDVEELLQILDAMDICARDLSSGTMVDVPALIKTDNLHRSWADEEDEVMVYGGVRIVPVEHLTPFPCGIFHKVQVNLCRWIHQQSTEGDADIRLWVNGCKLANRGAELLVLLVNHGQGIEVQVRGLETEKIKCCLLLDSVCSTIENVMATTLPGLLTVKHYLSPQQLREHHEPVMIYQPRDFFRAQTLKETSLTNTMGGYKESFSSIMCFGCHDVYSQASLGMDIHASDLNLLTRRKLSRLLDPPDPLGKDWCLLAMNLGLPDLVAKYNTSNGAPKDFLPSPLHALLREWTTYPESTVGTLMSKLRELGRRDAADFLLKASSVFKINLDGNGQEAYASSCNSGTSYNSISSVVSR

Block 1 — SMILES: CSc1cccnc1N1CCN(Cc2nc3ccccc3[nH]2)CC1; read-out: cell-free assay; method: competition with immobilised ligand; tested at: 1 µM; quantity: remaining binding
MAPK12 (Homo sapiens, UniProt P53778): 98%
PHKG2 (Homo sapiens, UniProt P15735): 100%
COQ8B (Homo sapiens, UniProt Q96D53): 100%
CDK8 (Homo sapiens, UniProt P49336): 87%
MST1R (Homo sapiens, UniProt Q04912): 100%
MTOR (Homo sapiens, UniProt P42345): 100%

Block 2 — method: aptamer microarray, sandwich; form: DNA with 2'F-ANA; matrix: in vitro; tested at: 200 nM; with: Cy3 exosite-II aptamer, 400 nM; direction: higher = stronger binding; quantity: mean fluorescence intensity; strand: GGTTGGTGTGGTTGG
Target: Prothrombin, mature alpha-thrombin (F2, Homo sapiens, UniProt P00734)
Setting: whole 15-mer aptamer, many near background
2'F-ANA at 1 8 9 10: 53.7 a.u.
2'F-ANA at 2 3 6 10 11 12 14: 240 a.u.
2'F-ANA at 2 7 12 15: 852 a.u.
2'F-ANA at 1 2 5 6 11 12 15: 79.5 a.u.
2'F-ANA at 1 2 4 5 6 7 8 10 12 13 15: 58.9 a.u.
2'F-ANA at 2 3 7 8 12 13 14: 522 a.u.
2'F-ANA at 1 5 10 15: 44.9 a.u.
2'F-ANA at 3 5 10 12 14 15: 53.2 a.u.

Block 3 — Structure (SMILES): COc1ccc(OC)c2c(=S)c3ccccc3[nH]c12; read-out: enzyme activity; action: inhibitor; tested at: 0.5 µM; reference: control; quantity: remaining activity
IKBKE (Homo sapiens, UniProt Q14164): 104%
Protein kinase C beta type, isoform beta-I (PRKCB, Homo sapiens, UniProt P05771): 101%
TGFBR1 (Homo sapiens, UniProt P36897): 99.1%
STK39 (Homo sapiens, UniProt Q9UEW8): 94.4%
Cyclin-dependent kinase 5, with p25 (CDK5, Homo sapiens, UniProt Q00535): 85.4%
MAPK9 (Homo sapiens, UniProt P45984): 102%
PRKCA (Homo sapiens, UniProt P17252): 95.7%
DAPK1 (Homo sapiens, UniProt P53355): 106%

Block 4 — method: universal PBM; form: double-stranded DNA, one strand shown; matrix: in vitro; tested at: 600 nM; direction: higher = stronger binding; quantity: E-score
Target: Sal-like protein 4, full length isoform A (SALL4, Homo sapiens, UniProt Q9UJQ4, residues 1-1053)
Sequence of UniProt Q9UJQ4 (whole entry, looked up): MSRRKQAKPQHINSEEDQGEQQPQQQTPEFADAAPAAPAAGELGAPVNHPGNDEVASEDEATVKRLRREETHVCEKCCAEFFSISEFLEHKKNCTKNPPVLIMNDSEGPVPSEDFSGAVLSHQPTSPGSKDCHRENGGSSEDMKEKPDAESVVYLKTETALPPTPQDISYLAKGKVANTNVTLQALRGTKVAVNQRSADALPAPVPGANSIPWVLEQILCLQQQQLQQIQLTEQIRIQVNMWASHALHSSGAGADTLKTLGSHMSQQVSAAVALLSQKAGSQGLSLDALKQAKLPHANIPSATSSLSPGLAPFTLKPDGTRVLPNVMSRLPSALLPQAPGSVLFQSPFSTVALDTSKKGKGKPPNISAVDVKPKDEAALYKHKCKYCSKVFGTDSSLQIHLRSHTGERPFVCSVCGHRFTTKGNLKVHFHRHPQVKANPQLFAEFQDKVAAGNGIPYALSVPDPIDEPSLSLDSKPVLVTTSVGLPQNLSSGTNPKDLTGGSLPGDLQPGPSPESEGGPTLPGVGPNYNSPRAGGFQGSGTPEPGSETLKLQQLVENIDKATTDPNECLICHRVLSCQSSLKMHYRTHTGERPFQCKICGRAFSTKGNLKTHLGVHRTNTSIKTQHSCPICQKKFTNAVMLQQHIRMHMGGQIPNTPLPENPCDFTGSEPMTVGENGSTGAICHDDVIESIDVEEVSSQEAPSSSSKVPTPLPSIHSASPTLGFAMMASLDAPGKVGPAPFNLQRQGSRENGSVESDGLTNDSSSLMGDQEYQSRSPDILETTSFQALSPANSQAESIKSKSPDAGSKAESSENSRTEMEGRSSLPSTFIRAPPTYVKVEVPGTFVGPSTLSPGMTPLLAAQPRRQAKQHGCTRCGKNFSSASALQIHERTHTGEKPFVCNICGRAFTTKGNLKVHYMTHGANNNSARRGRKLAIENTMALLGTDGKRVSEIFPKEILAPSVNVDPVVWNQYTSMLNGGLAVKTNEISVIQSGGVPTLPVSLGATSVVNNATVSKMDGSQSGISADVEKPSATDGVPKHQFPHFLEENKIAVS
Setting: 8-mer, flanks averaged, mean of replicates
CGACCGAA: -0.129
CCTTCGCA: -0.0264
CCGGACGG: -0.308
ATGCGCAT: 0.253
CCGATTAC: -0.115
GAAGCGCA: -0.262
CCTGGACG: -0.385
ACAACCAT: 0.252
